Assay results pooled from the literature.
Protocols differ between the studies behind these lines. ± marks the error that the study gave. ≈ marks a conversion by molar mass, not a printed value.

For `O=C1CC(c2ccoc2)c2ccc(NC(=O)c3ccccc3)cc2N1` (centres unmarked), “Soret peak red shift” read 4 nm (recombinant aromatase CYP19; absorption spectroscopy; 100 µM, no androstenedione; reference: 416 nm).
The protective effect of `COc1ccc2occ(/C=C/C(=O)N3CCN(C(=S)SCCN(C)C)CC3)c(=O)c2c1` is reported as 59.4 ± 2.1% (tomato spotted wilt virus; viral infection, half-leaf method; Nicotiana glutinosa; 500 µg/mL).
For `O=C(Nc1ccc(C(F)(F)F)cc1)c1cc(Cl)ccc1O`, “AR protein level” read “inhibited” (androgen receptor; Western blot; CWR22Rv1; 1 µM, 16 h).
`CC(C)(C)C(=O)Nc1ccc2[nH]c(CN3CCC(N(CCCN4CCOCC4)CC4OC(n5cnc6c(N)ncnc65)C(O)C4O)CC3)nc2c1` (centres unmarked) — result for H3K79me2 level: “decreased” (DOT1L R231Q; Western blot; H460 R231Q cells; 5 µM; reference: untreated).
`O=C(c1ccc(F)cc1)N1CCCC(c2nc(-c3ncccn3)no2)C1` (centres unmarked) has an Emax of 15% (mGluR5; calcium fluorescence, positive allosteric modulator; mGluR5-expressing cells; added: glutamate EC20; reference: maximal glutamate response).
`CN(C)CCCSC(=S)N1CCN(C(=O)/C=C/c2coc3ccccc3c2=O)CC1` has an EC50 of 65.3 ± 7.2 µg/mL (≈ 147 µM) (tomato spotted wilt virus; virus inactivation, half-leaf method; Nicotiana glutinosa; tested 31.25 to 500 µg/mL).
Under “apparent binding constant”, `CCCCCC(C)NCC(=O)O` (centres unmarked) is recorded as 1.33 mM⁻¹ (DNA; UV-vis absorption titration; pH 7.4, room temperature).
`Cn1c(=O)oc2ccc(-c3ccc(CC(C#N)NC(=O)C4CNCCCO4)c(F)c3)cc21` (centres unmarked) — result for “reduction in NE activity”: 43.2% (neutrophil elastase (human); inhibitor; human, whole blood; 10 mg once daily, 31 days after discontinuation, normalised to neutrophil count).
The IC50 of `COc1cc(CCC(C)=O)ccc1O` is reported as greater than 4 µg/mL (mAb 2-LD2; antibody binding, indirect competitive ELISA; added: coating antigen hapten 1-OVA).
For `CC[C@H](C)[C@H](NC(=O)[C@H](Cc1ccccc1)NC(=O)[C@@H](NC(=O)[C@@H](NC(=O)[C@H](CC(C)C)NC(=O)[C@H](CCCCN)NC(=O)[C@@H](N)CCCCN)[C@@H](C)CC)[C@@H](C)O)C(=O)N[C@@H](CC(C)C)C(=O)N[C@@H](CCCCN)C(=O)N[C@@H](CCCCN)C(=O)N[C@H](C(=O)N[C@@H](CCCNC(=N)N)C(=O)N[C@@H](CCC(=O)O)C(=O)N[C@@H](CCCCN)C(=O)N[C@@H](CCCCN)C(=O)N[C@@H](CCCCN)C(=O)N[C@@H](CCC(=O)O)C(=O)N[C@@H](CS)C(=O)N[C@@H](CC(C)C)C(=O)N[C@H](C(=O)O)C(C)C)[C@@H](C)O`, “rate constant kIO” read 8 s⁻¹ (voltage-gated sodium channel; resurgent sodium current, kinetic model fit; mouse CA3 neurons; 200 µM, membrane potential -10 mV).
`Cc1cc(C)nc(NC(=S)N2CCN(c3ccncc3)CC2)c1`: inhibition “inactive” (panel of other dehydrogenases; enzyme activity; concentration not given).
With `O=C(c1ccc(F)cc1)N1CCCC(c2nc(-c3ccccn3)no2)C1` (centres unmarked) the Emax was 109 ± 2% (mGluR5; calcium fluorescence, positive allosteric modulator; mGluR5-expressing cells; added: glutamate EC20; reference: maximal glutamate response).
`CC[C@H](C)[C@H](NC(=O)[C@H](CC(C)C)NC(=O)[C@@H](NC(=O)[C@@H](NC(=O)[C@H](CC(C)C)NC(=O)[C@H](CCCCN)NC(=O)[C@@H](N)CCCCN)[C@@H](C)CC)[C@@H](C)O)C(=O)N[C@@H](Cc1ccccc1)C(=O)N[C@@H](CCCCN)C(=O)N[C@@H](CCCCN)C(=O)N[C@H](C(=O)N[C@@H](CCCNC(=N)N)C(=O)N[C@@H](CCC(=O)O)C(=O)N[C@@H](CCCCN)C(=O)N[C@@H](CCCCN)C(=O)N[C@@H](CCCCN)C(=O)N[C@@H](CCC(=O)O)C(=O)N[C@@H](CS)C(=O)N[C@@H](CC(C)C)C(=O)N[C@H](C(=O)O)C(C)C)[C@@H](C)O` — result for “rate constant kOB”: 64 s⁻¹ (voltage-gated sodium channel; resurgent sodium current, kinetic model fit; mouse CA3 neurons; 200 µM, membrane potential -30 mV).
For `CNC(=O)C1CCN(c2ccccc2NC(=O)c2ccc(-c3cc(O)ccc3C)c(C)n2)CC1`, the inhibitory concentration was 100 nM (human EPHA2/EPHA4; phosphorylation, inhibitor, Western blot; A673; added: EFNA5 0.5 µg/mL; lowest concentration).
